Experimental data from different studies.
“And” joins repeats or separate records; there may be more than shown. ± marks the error that the study gave.
sdiA: Regulatory protein SdiA (sdiA, Escherichia coli, UniProt P07026)
Chain of UniProt P07026 (whole entry, looked up): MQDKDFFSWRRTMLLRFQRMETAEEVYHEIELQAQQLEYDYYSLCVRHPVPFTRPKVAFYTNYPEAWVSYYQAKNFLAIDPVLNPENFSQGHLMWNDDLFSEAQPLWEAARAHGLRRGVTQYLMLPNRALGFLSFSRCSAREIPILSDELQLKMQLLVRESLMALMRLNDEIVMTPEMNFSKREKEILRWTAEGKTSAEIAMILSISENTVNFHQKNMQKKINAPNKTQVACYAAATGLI
Oprm1: Mu-type opioid receptor (Oprm1, Rattus norvegicus, UniProt P33535)
Chain of UniProt P33535 (whole entry, looked up): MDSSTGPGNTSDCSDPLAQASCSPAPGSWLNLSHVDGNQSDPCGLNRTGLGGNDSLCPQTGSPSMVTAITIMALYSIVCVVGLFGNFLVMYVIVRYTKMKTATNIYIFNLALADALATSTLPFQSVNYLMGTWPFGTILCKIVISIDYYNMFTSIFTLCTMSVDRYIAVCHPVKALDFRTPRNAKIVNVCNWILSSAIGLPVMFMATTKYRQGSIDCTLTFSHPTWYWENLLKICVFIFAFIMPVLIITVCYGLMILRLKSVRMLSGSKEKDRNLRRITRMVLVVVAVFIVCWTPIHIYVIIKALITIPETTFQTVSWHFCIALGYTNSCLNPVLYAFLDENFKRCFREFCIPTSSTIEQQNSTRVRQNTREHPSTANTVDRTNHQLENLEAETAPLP
lasR: Transcriptional activator protein LasR (lasR, Pseudomonas aeruginosa, UniProt P25084)
Uncharacterized hydrolase SAUSA300_2518: Uncharacterized hydrolase SAUSA300_2518 (Staphylococcus aureus, UniProt Q2FDS6)
Chain of UniProt Q99JW1 (whole entry, looked up): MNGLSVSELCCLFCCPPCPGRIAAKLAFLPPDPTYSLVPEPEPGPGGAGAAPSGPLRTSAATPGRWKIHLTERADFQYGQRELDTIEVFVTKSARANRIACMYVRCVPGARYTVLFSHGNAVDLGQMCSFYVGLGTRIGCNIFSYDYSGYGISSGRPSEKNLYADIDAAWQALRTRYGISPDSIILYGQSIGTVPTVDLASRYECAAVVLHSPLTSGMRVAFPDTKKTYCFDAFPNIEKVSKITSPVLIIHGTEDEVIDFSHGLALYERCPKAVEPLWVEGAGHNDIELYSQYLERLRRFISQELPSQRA
Chain of UniProt Q14145 (whole entry, looked up): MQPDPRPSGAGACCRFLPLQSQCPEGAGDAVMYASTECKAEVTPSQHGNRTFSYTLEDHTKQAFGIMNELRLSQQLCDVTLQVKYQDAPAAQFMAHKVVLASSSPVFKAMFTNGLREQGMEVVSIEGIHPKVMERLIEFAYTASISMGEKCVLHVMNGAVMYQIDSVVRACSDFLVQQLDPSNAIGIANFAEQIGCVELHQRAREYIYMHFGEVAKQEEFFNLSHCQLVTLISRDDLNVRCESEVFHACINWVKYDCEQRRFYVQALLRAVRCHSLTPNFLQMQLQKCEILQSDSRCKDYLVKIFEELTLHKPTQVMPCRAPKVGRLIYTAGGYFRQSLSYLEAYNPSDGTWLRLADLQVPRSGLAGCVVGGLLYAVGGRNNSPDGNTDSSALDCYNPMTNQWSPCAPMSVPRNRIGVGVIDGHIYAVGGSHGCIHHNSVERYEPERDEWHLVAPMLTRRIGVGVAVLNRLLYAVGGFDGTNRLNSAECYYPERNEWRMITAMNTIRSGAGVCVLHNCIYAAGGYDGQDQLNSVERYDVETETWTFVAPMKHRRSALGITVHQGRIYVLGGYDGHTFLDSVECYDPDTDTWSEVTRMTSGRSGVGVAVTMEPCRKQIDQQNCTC
Chain of UniProt Q9UM07 (whole entry, looked up): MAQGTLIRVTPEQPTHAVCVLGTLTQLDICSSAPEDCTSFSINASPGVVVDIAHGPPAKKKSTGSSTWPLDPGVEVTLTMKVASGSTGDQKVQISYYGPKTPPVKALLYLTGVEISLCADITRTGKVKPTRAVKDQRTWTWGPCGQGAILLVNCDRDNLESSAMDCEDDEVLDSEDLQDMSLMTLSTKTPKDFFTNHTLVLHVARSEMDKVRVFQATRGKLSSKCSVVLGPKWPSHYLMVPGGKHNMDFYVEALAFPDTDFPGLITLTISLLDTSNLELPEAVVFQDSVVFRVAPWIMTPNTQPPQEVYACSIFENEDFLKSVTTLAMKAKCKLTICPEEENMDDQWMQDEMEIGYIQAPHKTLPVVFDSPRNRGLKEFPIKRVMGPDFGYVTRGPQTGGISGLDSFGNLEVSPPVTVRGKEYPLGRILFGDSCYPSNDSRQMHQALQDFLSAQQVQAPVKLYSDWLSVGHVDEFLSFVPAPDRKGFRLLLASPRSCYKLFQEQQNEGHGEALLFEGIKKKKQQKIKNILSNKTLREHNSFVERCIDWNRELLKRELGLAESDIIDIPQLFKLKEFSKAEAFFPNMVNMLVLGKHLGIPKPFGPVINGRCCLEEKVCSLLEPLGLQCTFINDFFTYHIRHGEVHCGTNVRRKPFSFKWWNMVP
Chain of UniProt Q9UH17 (whole entry, looked up): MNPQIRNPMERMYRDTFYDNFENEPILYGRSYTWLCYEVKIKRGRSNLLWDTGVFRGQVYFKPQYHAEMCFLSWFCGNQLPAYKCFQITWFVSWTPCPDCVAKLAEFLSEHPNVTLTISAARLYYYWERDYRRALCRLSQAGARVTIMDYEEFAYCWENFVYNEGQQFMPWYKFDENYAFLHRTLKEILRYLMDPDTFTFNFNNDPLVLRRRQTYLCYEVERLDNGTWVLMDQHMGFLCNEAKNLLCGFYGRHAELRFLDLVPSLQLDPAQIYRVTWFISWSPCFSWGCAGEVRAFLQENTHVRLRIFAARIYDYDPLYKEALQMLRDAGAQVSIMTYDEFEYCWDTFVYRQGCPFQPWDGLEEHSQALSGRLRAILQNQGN
Chain of UniProt P41595 (whole entry, looked up): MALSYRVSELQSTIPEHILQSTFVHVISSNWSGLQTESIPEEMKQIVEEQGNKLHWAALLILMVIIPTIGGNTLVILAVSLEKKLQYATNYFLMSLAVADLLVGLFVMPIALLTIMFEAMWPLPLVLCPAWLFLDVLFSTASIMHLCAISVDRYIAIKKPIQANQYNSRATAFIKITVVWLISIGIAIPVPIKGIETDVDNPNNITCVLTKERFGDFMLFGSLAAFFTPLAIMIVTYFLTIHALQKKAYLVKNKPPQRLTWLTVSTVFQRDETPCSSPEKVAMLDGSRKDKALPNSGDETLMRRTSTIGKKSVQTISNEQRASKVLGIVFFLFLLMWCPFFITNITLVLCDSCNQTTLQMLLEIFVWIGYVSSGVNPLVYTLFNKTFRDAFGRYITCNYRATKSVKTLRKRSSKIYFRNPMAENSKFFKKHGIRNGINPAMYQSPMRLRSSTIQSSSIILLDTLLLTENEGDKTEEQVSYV
Chain of UniProt P21127 (whole entry, looked up): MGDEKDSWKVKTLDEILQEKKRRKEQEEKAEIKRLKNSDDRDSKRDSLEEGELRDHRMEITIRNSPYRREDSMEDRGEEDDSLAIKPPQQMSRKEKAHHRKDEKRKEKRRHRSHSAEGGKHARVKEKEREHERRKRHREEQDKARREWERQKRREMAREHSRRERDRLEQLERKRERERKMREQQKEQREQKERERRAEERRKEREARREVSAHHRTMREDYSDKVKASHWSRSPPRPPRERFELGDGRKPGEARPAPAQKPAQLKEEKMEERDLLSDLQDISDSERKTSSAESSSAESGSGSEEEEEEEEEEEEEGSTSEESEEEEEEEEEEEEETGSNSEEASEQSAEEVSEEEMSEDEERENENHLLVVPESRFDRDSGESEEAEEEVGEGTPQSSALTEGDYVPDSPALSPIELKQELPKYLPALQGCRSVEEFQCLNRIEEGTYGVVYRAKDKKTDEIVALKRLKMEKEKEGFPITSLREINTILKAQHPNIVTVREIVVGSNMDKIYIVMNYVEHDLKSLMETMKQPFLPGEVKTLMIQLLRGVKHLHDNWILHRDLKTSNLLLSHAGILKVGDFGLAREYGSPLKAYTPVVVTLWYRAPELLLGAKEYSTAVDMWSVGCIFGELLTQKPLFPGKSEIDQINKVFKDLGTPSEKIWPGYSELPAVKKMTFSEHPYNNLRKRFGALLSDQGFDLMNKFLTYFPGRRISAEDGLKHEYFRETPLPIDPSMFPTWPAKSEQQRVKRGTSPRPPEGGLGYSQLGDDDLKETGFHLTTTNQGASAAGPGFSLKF
Chain of UniProt P11309 (whole entry, looked up): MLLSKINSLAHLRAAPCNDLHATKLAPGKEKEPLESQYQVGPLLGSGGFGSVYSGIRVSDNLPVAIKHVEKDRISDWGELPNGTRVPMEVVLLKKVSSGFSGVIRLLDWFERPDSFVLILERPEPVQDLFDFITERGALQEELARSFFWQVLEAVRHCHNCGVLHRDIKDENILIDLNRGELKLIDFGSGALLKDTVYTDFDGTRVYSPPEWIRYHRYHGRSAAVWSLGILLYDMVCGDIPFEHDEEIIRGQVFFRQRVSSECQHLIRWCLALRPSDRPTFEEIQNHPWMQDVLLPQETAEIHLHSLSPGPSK
Chain of UniProt P0A988 (whole entry, unmodified, looked up): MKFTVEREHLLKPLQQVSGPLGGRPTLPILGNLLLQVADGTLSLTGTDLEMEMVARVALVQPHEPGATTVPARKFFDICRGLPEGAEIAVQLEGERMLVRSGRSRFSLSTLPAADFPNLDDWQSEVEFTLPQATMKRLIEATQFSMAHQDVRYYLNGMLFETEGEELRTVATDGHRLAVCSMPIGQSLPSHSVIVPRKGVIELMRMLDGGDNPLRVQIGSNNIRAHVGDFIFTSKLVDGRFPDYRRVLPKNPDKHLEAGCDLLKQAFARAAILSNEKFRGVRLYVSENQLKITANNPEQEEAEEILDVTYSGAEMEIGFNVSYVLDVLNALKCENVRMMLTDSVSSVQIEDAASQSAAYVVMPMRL
Chain of UniProt Q80UX8 (whole entry, looked up): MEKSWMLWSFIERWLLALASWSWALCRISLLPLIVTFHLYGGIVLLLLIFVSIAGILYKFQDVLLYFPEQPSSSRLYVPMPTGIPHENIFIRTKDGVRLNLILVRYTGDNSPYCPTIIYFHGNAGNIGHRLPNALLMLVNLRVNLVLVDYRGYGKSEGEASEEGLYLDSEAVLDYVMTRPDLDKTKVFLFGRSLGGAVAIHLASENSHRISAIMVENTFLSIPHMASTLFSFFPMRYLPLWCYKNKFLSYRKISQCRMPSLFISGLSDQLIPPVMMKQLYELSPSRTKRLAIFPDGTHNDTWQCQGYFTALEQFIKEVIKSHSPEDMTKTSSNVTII

| Compound | target or system | assay | test system | setting | how to read | endpoint | result |
| --- | --- | --- | --- | --- | --- | --- | --- |
| O=C(N[C@@H]1c2ccccc2C[C@H]1N1CCCC1)c1ccc(-c2ccnc3[nH]ccc23)nc1 | GRK7 (Homo sapiens, UniProt Q8WTQ7) | binding, competition with immobilised ligand |  | 3 µM |  | remaining binding | 21% |
| CC(C)[C@H](NC(=S)Nc1ccc2c(c1)C(=O)OC21c2ccc(O)cc2Oc2cc(O)ccc21)C(=O)N[C@@H](CCCNC(=N)N)C(=O)N[C@@H](CCCNC(=N)N)C(=O)N[C@@H](C)C(=O)N[C@@H](CC(=O)O)C(=O)N[C@@H](CC(N)=O)C(=O)N[C@@H](CCCNC(=N)N)C(=O)N1CCC[C@H]1C(=O)NCC(=O)O | Cyclic nucleotide-gated channel beta-3 (CNGB3, Homo sapiens, UniProt Q9NQW8, C234W) | binding, saturation binding | HEK293T expressing Myc-tagged CNGB3 | 60 min, 37 °C |  | Bmax | 0.907 mol/mol receptor |
| CC(=O)N[C@@H](CCC(N)=O)C(=O)N[C@@H](CC1CCCCC1)C(=O)N[C@@H](CNC(=O)CCl)C(=O)N[C@@H](CC(C)C)C(=O)N[C@@H](Cc1ccccc1)C(=O)O | Beta sliding clamp (Escherichia coli, UniProt P0A988) | binding, isothermal titration calorimetry |  | pH 7.4, 37 °C |  | ΔG | -8.9 kcal/mol |
| O=C(Cc1cccc([N+](=O)[O-])c1)N[C@H]1CCSC1=O | sdiA |  |  |  |  | Emax | 126% |
| CCc1nnc(-c2c(OC)cc(-c3cnc4cc(-c5cnn(C)c5)ccn34)cc2OC)o1 | HTR2B (Homo sapiens, UniProt P41595) | agonist radioligand, radioligand binding |  | 10 µM, SafetyScreen44 5-HT2B mean | lower = stronger displacement | remaining binding | 89.1% |
| CCCC[C@H]1CNCCN1C[C@@H]1CCCN1C[C@H](CC1CCCCC1)N1CCN(CCc2ccc(Cl)c(Cl)c2)[C@H](Cc2ccc(O)cc2)C1 | Oprm1 | radioligand binding | rat brain membranes | 500 nM, pH 7.5, 25 °C, added: 0.87 nM [3H]DAMGO |  | remaining binding | 96.6 ± 5.65% |
| C#CCCCCOc1ccc2c(c1)CCCN2C(=O)CCl | CDK11B (Homo sapiens, UniProt P21127) | mass spectrometry profiling | H460 cell lysate | 100 µM over 10 µM, UniProt P21127 | baseline: high over low concentration | reactivity ratio | 1.17 |
| CC(C)[C@@H]1NC(=O)[C@H](CCC(=O)O)NC(=O)CNC(=O)[C@H]([C@@H](C)O)NC(=O)[C@H](CCC(=O)O)NC(=O)[C@H](CCC(=O)O)NC(=O)[C@H](CC(=O)O)NC(=O)[C@H](C(C)C)NC(=O)[C@H]([C@@H](C)O)NC(=O)CNC(=O)[C@H](CC(=O)O)NC(=O)[C@H](CC(N)=O)NC(=O)[C@H](Cc2ccc(O)cc2)NC1=O | KEAP1 (Homo sapiens, UniProt Q14145) | Keap1-Nrf2 binding, inhibitor, competitive FP |  | 0.0015 µM, 30 min, added: Nrf2 peptide probe | lower = stronger inhibition | fluorescence polarization | 0.99 a.u. and 1 a.u. |
| Oc1ccc(C[C@@H]2CN([C@H](Cc3ccc4ccccc4c3)CN3CCC[C@H]3CN3CCNC[C@@H]3Cc3ccc4ccccc4c3)CCN2CCCC2CCCC2)cc1 | Oprm1 | radioligand binding | rat brain membranes | 500 nM, pH 7.5, 25 °C, added: 0.87 nM [3H]DAMGO |  | remaining binding | 107 ± 5.22% |
| CCO[C@H]1[C@H](O)[C@@H](N)[C@@H](O[C@H]2[C@H](O[C@@H]3O[C@H](CO)[C@@H](O[C@H]4O[C@@H](CN)[C@@H](O)[C@H](O)[C@H]4N)[C@H]3O)[C@@H](O)[C@H](N)C[C@@H]2N)O[C@@H]1CO | Maoa (Rattus norvegicus, UniProt P21396) | radioligand binding |  | 10 µM, 1% DMSO |  | specific binding | 4% |
| O=C(CCCc1ccccc1)NC1CCOC1=O (stereo not drawn) | lasR | reporter gene, antagonist |  |  | baseline: IC50 PAO-JP2 over E. coli JLD271 | potency ratio | 180 |
| O=C(N1CCCCC1)n1ccnn1 | Protein ABHD13 (Abhd13, Mus musculus, UniProt Q80UX8) | probe labelling, inhibitor, competitive ABPP-SILAC, item: Abhd13 | mouse T cells | concentration not given, 4 h, in situ, single peptide | baseline: treated over DMSO, lower = more inhibition | SILAC ratio | 0 |
| COc1cc2c(cc1S(=O)(=O)F)C(=O)NCCC2 | Uncharacterized hydrolase SAUSA300_2518 | enzyme activity, inhibitor, fluorogenic substrate |  | 50 µM |  | remaining activity | 95.4% and 90.5% and 94.6% |
| CN(C)[C@H]1C[C@@]23CC[C@@]4(O2)C(=CC[C@]2(C)[C@@H](c5ccc6ccncc6c5)CC[C@H]24)C=C3[C@@H](O)[C@@H]1O | PI4K2B (Homo sapiens, UniProt Q8TCG2) | ATP probe labelling, inhibitor, KiNativ profiling |  | 1 µM |  | inhibition | 11.8% |
| CCOC(=O)[C@@H]1Cc2c(cc([N+](=O)[O-])cc2[N+](=O)[O-])[C@H](O)[C@]12C(=O)Nc1ccc(Br)cc12 | NUAK2 (Homo sapiens, UniProt Q9H093) | KINOMEscan |  | 100 nM | baseline: DMSO control | remaining binding | 54% |
| COc1ccccc1-c1n[nH]c2nc(NC3CCN(C(=O)Cc4ccc(F)cc4F)CC3)ncc12 | Leishmania donovani NPK1-related kinase (LINJ.24.1500) | bead binding competition | Leishmania donovani extract | 10 µM | baseline: vehicle | relative abundance | 0.72 |
| O=C(O)c1cccc(CP(=O)(O)O)n1 | Metallo-beta-lactamase type 2 (Serratia marcescens, UniProt P52699) | inhibitor |  | added: nitrocefin |  | dissociation half-life | 22 ± 2.5 min |

| Compound | target or system | assay | test system | setting | how to read | endpoint | result |
| --- | --- | --- | --- | --- | --- | --- | --- |
| CC(C)[C@H]1NC(=O)C[C@H]2/C=C/CCSSC[C@@H](NC1=O)C(=O)N[C@H](Cc1cccc3ccccc13)C(=O)NCC(=O)O2 | MAP4K2 (Homo sapiens, UniProt Q12851) | enzyme activity, inhibitor |  | 10 µM |  | inhibition | -8.7% |
| CCCCCCCCCC(=O)CC(=O)N[C@H]1CCOC1=O | lasR | reporter gene, agonist | Escherichia coli JLD271 | 10 µM, pSC11 and pJN105L plasmids | baseline: OdDHL at same concentration | agonist activity | 93% |
| O=C1NC2(CC2)COc2ncc(F)cc2[C@H]2COCCN2c2ccn3ncc1c3n2 |  |  | Sprague-Dawley rat, female, serum | oral, 2.5 mg/kg/day, end of treatment, 4-week subacute toxicity |  | serum hepatic lipase activity | 3.6 ± 0.9 U/L |
| CS(C)(=O)=Nc1ccc(-c2ccc(-c3nc4cc(O[C@@H]5CO[C@H]6[C@@H]5OC[C@H]6O)[nH]c4cc3F)cc2)cc1 | CSNK2A1 (Homo sapiens, UniProt P68400) | enzyme activity, inhibitor |  | 10 µM |  | inhibition | 14% |
| CC[C@H](C)[C@H](NC(=O)[C@@H](NC(=O)c1cccc(Cl)c1Cl)C(C)(C)C)C(=O)N[C@H](C(=O)N[C@H](C(=O)N[C@H](C(=O)N[C@@H](CCC(N)=O)C(=O)N[C@@H](Cc1c[nH]cn1)C(=O)N[C@H](CC(C)C)C(=O)N[C@@H](CO)C(=O)NCCOCCOCC(=O)N[C@@H](CCCCNC(=O)CC[C@@H]1NC(=O)[C@@H](CCCNC(=N)N)NC(=O)[C@H](CCCNC(=N)N)NC(=O)[C@@H](CCCNC(=N)N)NC(=O)[C@H](CCCNC(=N)N)NC(=O)[C@H](Cc2ccc3ccccc3c2)NC(=O)[C@@H](Cc2ccccc2)NC1=O)C(N)=O)[C@@H](C)O)[C@@H](C)CC)C(C)(C)C | Protein phosphatase 3 catalytic subunit alpha, with calcineurin B (PPP3CA, Homo sapiens, UniProt Q08209) | fluorescence polarisation competition |  |  | baseline: reference peptide | relative potency | ~4 fold |
| O=C(Cc1ccc(Br)cc1)N[C@@H]1CCOC1=O | sdiA |  |  |  |  | Emax | 67.4% |
| O=C(CCCCCCCCCN=C=S)CC(=O)N[C@H]1CCOC1=O | lasR | reporter gene, agonist | Pseudomonas aeruginosa PAO-JP2 | 100 µM, plasI-LVAgfp reporter | baseline: OdDHL at same concentration | agonist activity | 119% |
| CC(C)CC(O)(CC(C)C)c1cn(C(=O)N2CCCC2)nn1 | Alpha/beta hydrolase domain-containing protein 17A (Abhd17a, Mus musculus, UniProt Q99JW1) | probe labelling, inhibitor | mouse, brain | i.p., 0.8 mg/kg, 4 h, single peptide | baseline: treated over vehicle mice, lower = stronger inhibition | activity ratio-of-ratios | 1.99 and 1.73 and 1.5 and 1.7 |
| COc1ccccc1-c1n[nH]c2nc(N[C@H]3CC[C@H](NS(=O)(=O)CC(C)C)CC3)ncc12 | cyclin 9 (Leishmania donovani, UniProt A0A2D1QVA3) | affinity bead binding, bead competition pull-down | Leishmania donovani extract | analogue affinity beads |  | Hill slope | 1.73 |
| C[C@@H](O)[C@@H]1CN([C@H](Cc2ccc3ccccc3c2)CN2CCC[C@H]2CN2CCNC[C@@H]2CO)CCN1CCc1ccc(Cl)c(Cl)c1 | Oprm1 | radioligand binding | rat brain membranes | 500 nM, pH 7.5, 25 °C, added: 0.87 nM [3H]DAMGO |  | remaining binding | 110 ± 8.82% |
| O=C1NC(=O)c2c1c1cc(F)c[n+]3c1c1c2c2cc(O)ccc2[n]1[Ru-4]312([N]=C=S)[S+]3CC[S+]1CC[S+]2CC3 (stereo not drawn) | PIM1 (Homo sapiens, UniProt P11309) | enzyme activity |  | 100 nM, human enzyme, added: 10 µM ATP | baseline: untreated | remaining activity | 1% |
| C=CC(=O)Nc1cc(-c2ccc(C(=O)N3CCCC(O)(CC)C3)cc2)ccc1F (stereo not drawn) | DNA dC->dU-editing enzyme APOBEC-3B, C-terminal domain (Homo sapiens, UniProt Q9UH17) | covalent adduct, intact protein MS |  | 1 h, 10-fold excess, 250 µM |  | adducted protein | 26% and 20% |
| CN(C)CCCSC(=S)N1CCN(C(=O)/C=C/c2coc3ccccc3c2=O)CC1 | Nucleoprotein (N, Tomato spotted wilt virus, UniProt P25999, R94A) | binding, microscale thermophoresis |  | 0.2441 µM | dose series | MST response | 842 a.u. |
| N[C@H](C(=O)N1CCCC1)C1CCN(c2nccc3c(-c4ncc(Cl)cc4Cl)cccc23)CC1 | PADI4 (Homo sapiens, UniProt Q9UM07) | thermal shift |  | 30 µM |  | melting temperature | 66.4 °C and 66.6 °C |
| Cc1ccc(OS(=O)(=O)F)c(C(=O)Nc2ccncc2)c1 | Uncharacterized hydrolase SAUSA300_2518 | enzyme activity, inhibitor, fluorogenic substrate |  | 10 µM |  | remaining activity | 42.1% and 40.9% and 40.5% |
| O=C(Nc1ccccc1NC(=O)c1cccc(Cl)c1)c1cccc(Cl)c1 | lasR | reporter gene, agonist | Pseudomonas aeruginosa PAO-JP2 | 100 µM, plasI-LVAgfp reporter | baseline: OdDHL at same concentration | agonist activity | 0% |

Some of these lines once more:
| Compound | target or system | assay | test system | setting | how to read | endpoint | result |
| --- | --- | --- | --- | --- | --- | --- | --- |
| CC[C@H](C)[C@H](NC(=O)[C@@H](NC(=O)c1cccc(Cl)c1Cl)C(C)(C)C)C(=O)N[C@H](C(=O)N[C@H](C(=O)N[C@H](C(=O)N[C@@H](CCC(N)=O)C(=O)N[C@@H](Cc1c[nH]cn1)C(=O)N[C@H](CC(C)C)C(=O)N[C@@H](CO)C(=O)NCCOCCOCC(=O)N[C@@H](CCCCNC(=O)CC[C@@H]1NC(=O)[C@@H](CCCNC(=N)N)NC(=O)[C@H](CCCNC(=N)N)NC(=O)[C@@H](CCCNC(=N)N)NC(=O)[C@H](CCCNC(=N)N)NC(=O)[C@H](Cc2ccc3ccccc3c2)NC(=O)[C@@H](Cc2ccccc2)NC1=O)C(N)=O)[C@@H](C)O)[C@@H](C)CC)C(C)(C)C | Protein phosphatase 3 catalytic subunit alpha, with calcineurin B (PPP3CA, Homo sapiens, UniProt Q08209) | fluorescence polarisation competition |  |  | baseline: reference peptide | relative potency | ~4 fold |
| O=C(Cc1ccc(Br)cc1)N[C@@H]1CCOC1=O | sdiA |  |  |  |  | Emax | 67.4% |
